# Assay results collected from several papers.
# A part holds a random share of what one study measured.
# Sequence of UniProt Q9P289 (whole entry, looked up): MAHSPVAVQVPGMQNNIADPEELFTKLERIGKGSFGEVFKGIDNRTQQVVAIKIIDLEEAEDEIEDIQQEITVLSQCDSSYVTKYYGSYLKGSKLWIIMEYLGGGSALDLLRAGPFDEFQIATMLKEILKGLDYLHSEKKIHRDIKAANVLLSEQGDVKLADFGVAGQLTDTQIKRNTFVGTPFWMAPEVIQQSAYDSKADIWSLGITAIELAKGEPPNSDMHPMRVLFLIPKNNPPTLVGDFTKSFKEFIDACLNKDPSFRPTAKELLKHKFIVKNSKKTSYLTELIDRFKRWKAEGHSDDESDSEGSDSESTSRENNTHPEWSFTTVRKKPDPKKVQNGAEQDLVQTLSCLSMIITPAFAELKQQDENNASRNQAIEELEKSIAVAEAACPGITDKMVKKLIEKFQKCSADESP
# Sequence of UniProt P49336 (whole entry, looked up): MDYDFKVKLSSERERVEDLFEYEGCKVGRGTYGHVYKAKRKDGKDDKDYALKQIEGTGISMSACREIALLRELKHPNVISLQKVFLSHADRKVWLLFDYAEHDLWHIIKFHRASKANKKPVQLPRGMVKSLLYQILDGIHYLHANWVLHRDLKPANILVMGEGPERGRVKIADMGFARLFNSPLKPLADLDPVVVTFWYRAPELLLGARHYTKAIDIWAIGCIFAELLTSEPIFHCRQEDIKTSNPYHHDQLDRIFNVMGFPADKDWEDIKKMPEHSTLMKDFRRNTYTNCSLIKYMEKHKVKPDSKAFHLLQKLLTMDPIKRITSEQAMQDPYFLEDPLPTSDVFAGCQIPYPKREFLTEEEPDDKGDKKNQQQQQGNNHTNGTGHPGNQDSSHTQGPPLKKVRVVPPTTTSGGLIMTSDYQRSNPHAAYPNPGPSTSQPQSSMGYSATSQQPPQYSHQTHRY
# Sequence of UniProt Q8WTQ7 (whole entry, looked up): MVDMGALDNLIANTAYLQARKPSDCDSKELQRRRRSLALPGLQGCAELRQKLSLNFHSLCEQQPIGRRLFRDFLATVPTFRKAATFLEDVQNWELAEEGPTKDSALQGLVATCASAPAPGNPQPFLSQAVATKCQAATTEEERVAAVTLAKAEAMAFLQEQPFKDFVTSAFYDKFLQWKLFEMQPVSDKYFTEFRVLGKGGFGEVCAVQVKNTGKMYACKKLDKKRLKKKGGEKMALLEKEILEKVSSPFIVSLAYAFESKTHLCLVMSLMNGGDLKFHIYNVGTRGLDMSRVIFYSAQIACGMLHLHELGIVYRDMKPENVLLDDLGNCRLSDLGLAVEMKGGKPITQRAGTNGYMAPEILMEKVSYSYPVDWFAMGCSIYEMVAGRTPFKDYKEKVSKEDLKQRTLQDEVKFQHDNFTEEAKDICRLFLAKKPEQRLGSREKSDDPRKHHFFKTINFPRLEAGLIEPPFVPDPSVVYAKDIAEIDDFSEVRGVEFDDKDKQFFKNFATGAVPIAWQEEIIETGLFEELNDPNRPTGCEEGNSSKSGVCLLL
# Sequence of UniProt O15530 (whole entry, looked up): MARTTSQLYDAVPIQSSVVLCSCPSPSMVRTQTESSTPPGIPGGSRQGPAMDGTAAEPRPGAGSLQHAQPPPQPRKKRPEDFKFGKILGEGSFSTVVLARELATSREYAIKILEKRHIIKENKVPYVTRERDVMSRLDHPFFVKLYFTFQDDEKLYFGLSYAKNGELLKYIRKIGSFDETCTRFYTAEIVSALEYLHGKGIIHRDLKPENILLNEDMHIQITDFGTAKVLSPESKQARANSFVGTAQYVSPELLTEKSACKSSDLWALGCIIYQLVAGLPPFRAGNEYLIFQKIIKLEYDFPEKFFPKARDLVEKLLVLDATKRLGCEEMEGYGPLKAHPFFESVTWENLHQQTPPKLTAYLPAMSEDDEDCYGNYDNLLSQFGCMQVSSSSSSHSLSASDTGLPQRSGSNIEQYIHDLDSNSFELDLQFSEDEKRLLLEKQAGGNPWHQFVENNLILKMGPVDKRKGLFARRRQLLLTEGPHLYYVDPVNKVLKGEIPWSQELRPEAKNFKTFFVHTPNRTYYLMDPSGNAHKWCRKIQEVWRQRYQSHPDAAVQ
# Sequence of UniProt P49761 (whole entry, looked up): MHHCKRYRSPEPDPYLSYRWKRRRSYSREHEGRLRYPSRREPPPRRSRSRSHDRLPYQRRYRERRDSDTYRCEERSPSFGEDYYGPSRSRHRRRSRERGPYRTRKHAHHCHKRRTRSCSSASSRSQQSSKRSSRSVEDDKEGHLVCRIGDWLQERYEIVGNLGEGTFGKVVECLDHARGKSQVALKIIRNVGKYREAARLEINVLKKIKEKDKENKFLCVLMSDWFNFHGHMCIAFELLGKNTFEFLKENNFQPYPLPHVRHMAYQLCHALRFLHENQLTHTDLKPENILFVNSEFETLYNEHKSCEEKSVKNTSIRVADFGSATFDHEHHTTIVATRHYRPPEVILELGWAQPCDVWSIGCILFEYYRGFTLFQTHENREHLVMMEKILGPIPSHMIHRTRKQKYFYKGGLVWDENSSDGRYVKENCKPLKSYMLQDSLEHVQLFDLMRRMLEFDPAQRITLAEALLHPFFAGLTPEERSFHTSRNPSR
# Sequence of UniProt Q04771 (whole entry, looked up): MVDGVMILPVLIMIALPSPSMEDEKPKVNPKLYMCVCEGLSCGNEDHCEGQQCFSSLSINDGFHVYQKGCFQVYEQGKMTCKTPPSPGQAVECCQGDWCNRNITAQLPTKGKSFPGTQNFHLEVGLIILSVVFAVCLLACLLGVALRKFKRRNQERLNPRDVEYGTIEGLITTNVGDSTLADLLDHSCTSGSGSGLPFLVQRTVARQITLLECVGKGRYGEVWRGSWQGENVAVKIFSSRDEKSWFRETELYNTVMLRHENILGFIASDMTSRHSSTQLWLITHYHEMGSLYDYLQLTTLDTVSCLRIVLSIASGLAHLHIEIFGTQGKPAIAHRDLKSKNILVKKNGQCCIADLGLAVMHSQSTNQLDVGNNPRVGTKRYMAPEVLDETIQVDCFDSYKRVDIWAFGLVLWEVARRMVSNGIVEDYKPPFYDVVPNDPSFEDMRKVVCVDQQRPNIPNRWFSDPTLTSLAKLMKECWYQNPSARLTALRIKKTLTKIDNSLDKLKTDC
# Sequence of UniProt P51617 (whole entry, looked up): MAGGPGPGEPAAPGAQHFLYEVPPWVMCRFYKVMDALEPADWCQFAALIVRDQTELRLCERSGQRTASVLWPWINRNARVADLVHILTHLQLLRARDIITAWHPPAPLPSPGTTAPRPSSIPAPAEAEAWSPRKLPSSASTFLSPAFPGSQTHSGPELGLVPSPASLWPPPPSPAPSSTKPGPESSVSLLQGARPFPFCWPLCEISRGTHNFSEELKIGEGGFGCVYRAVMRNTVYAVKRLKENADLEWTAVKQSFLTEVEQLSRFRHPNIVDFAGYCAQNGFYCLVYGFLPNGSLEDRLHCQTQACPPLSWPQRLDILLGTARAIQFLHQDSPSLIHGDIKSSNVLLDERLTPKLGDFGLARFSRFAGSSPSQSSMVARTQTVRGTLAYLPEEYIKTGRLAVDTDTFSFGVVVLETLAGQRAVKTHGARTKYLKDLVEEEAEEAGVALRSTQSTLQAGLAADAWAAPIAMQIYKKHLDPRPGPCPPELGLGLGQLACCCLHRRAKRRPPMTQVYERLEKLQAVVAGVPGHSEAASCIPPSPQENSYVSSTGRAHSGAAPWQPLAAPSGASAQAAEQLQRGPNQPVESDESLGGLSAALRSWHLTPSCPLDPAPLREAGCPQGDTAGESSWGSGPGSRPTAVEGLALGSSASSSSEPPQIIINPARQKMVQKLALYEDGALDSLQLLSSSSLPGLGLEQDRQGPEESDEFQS
# Sequence of UniProt Q9BVS4 (whole entry, looked up): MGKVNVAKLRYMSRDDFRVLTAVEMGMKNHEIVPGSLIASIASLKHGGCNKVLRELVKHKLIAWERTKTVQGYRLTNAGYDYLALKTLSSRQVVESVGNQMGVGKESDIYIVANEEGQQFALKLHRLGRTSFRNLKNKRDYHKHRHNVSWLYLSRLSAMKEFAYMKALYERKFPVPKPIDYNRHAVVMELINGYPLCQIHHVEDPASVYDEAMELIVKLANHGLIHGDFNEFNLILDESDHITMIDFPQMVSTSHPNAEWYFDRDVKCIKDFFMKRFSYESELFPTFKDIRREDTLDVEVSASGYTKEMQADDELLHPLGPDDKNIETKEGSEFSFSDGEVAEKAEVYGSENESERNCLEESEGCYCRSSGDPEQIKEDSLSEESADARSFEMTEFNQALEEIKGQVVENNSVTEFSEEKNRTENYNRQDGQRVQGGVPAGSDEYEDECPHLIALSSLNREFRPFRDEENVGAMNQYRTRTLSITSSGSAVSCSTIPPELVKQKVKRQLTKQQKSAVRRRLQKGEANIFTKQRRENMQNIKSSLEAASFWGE
# Sequence of UniProt Q9UKI8 (whole entry, looked up): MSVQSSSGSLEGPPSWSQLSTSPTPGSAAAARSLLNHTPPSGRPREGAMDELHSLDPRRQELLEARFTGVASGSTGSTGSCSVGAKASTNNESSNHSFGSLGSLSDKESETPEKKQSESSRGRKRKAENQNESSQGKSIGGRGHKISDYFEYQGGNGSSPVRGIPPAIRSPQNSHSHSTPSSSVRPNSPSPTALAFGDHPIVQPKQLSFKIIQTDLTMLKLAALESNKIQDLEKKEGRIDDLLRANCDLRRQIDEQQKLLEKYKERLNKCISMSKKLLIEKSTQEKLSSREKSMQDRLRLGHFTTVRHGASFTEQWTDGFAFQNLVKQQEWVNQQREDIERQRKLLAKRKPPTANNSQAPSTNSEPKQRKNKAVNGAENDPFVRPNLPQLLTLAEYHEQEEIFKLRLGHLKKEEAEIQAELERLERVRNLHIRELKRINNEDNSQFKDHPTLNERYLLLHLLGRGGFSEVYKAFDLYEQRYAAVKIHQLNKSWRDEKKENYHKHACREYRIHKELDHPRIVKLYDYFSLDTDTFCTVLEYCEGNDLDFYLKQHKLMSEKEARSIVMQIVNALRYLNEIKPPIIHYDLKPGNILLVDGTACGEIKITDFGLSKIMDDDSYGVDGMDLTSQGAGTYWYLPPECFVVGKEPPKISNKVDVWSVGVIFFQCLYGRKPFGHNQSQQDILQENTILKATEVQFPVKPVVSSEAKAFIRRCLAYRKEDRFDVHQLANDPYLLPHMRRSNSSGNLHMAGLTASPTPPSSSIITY

# Sample 1
# Structure (SMILES): Cc1cc(-n2nc(Cc3cc(F)cc(C(F)(F)F)c3)nc2C)ccc1C(N)=O
# Effect on: cell-free assay
# Method: competition with immobilised ligand
# Concentration: 1 µM
target,remaining binding [%]
"PRKD2 (Homo sapiens, UniProt Q9BZL6)",94
"TLK1 (Homo sapiens, UniProt Q9UKI8)",93
"IRAK1 (Homo sapiens, UniProt P51617)",100
"GRK7 (Homo sapiens, UniProt Q8WTQ7)",100
"CLK3 (Homo sapiens, UniProt P49761)",94
"MAPK9 (Homo sapiens, UniProt P45984)",81
"RIOK2 (Homo sapiens, UniProt Q9BVS4)",100
"STK26 (Homo sapiens, UniProt Q9P289)",100
"CSK (Homo sapiens, UniProt P41240)",97
"ACVR1 (Homo sapiens, UniProt Q04771)",100
"AKT3 (Homo sapiens, UniProt Q9Y243)",100
"MTOR (Homo sapiens, UniProt P42345)",78
"MAP3K2 (Homo sapiens, UniProt Q9Y2U5)",100
"MAP2K3 (Homo sapiens, UniProt P46734)",100
"MAP4K4 (Homo sapiens, UniProt O95819)",100
"MAPK15 (Homo sapiens, UniProt Q8TD08)",95
"EPHA3 (Homo sapiens, UniProt P29320)",94
"CDK8 (Homo sapiens, UniProt P49336)",97
"PDPK1 (Homo sapiens, UniProt O15530)",100
"PAK3 (Homo sapiens, UniProt O75914)",100
"EPHB4 (Homo sapiens, UniProt P54760)",100

# Sample 2
# Target: Max dimerization protein 1, bHLH-zipper, MAX partner unstated (MXD1, Homo sapiens, UniProt Q05195, residues 56-136)
# Method: protein-binding microarray
# Molecule type: double-stranded DNA, one strand shown
# Medium: in vitro
# Concentration: not given
# Setting: k-mer, scored over probes, only values ≥0.25
# Reading: higher = stronger binding
# Residues (chain): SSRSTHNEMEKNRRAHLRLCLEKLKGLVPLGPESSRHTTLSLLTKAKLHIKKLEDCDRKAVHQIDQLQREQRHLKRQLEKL
Oligonucleotide,E-score
CGCGTGAA,0.314
CGCCCCCC,0.326
GAACCCAC,0.271
ATGCCACG,0.377
ATAGCACG,0.37
CATGTCAC,0.355
GTAAGGCA,0.311
ACGTGAGG,0.335

# Sample 3
# Target: Serine/threonine-protein kinase 26 (STK26, Homo sapiens, UniProt Q9P289)
# Effect on: enzyme activity
# Mode: inhibitor
# Concentration: 0.5 µM
# Relative to: control
SMILES,remaining activity
COc1cc2nccc(Oc3ccc(NC(=S)NC(=O)c4ccccc4C)cc3)c2cc1OC,101%
N#CC(C#N)=C(N)/C(C#N)=C/c1ccc(O)cc1,101%
COc1cc2ncnc(Nc3ccc(Oc4ccccc4)cc3)c2cc1OC,102%
Cn1sc(=O)n(Cc2ccccc2)c1=O,98.1%
O=C1NC(=O)C(c2cn(CCCO)c3ncccc23)=C1c1cnccn1,78.7%
NCCNc1ncc(C(N)=O)c(Nc2cccc(C(F)(F)F)c2)n1,117%
CN(C)c1ccc(C=C2C(=O)Nc3ccccc32)cc1,90.9%
Nc1ncnc2n[nH]c(Nc3ccc(F)cc3)c12,91%
Cc1cccc(-c2[nH]c(C(C)(C)C)nc2-c2ccc3c(c2)OCO3)n1,95.5%
O=S(=O)(c1cccc2cnccc12)N1CCCNCC1,90%
COc1ccc(C(=O)Nc2sc3c(c2C(N)=O)CCCC3)cc1OC,96.6%

# Sample 4
# Target: Phosphate system positive regulatory protein PHO4, full length, GST-tagged (PHO4, Saccharomyces cerevisiae, UniProt P07270, residues 1-312)
# Method: competition protein-binding microarray
# Molecule type: double-stranded DNA, one strand shown
# Medium: in vitro
# Concentration: 2 µM
# Setting: whole 60-bp probe, lowest competitor level
# Together with: Cbf1 competitor, 0.05 µM
# Reading: higher = stronger binding
# Constant ends, left off below: … GTCTTGATTCGCTTGACGCTGCTG
# Construct (chain): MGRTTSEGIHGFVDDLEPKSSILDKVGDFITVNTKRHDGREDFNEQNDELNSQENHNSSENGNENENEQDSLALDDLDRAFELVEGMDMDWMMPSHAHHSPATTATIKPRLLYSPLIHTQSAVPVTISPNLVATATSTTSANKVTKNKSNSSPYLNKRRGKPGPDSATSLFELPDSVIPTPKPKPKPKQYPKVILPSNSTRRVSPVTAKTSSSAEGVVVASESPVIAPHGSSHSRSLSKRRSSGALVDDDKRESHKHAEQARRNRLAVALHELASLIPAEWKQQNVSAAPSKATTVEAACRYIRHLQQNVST
Oligonucleotide,fluorescence intensity
ACTACGAGGGCCCTGTTCGTGGGACAGATTTCCATC,5750 a.u.
ATAAGGAATAAAAAACACGTGCTAATAAAAAATCAA,18000 a.u.
TAGTGTACTCGCGGCCACGATCCATCTGGATAACTA,6930 a.u.
AATCGAAAAATTTAGCACGTGGGACGGTAAGCATAA,20000 a.u.
CGTCCTAGTGATTTTCACGTGTGATCCATGAGGAAG,12400 a.u.
CTAACGAAGGTTTGCCGTGTGGGTGACAAGCCAAGT,5400 a.u.
AAATCGGAGGTTTCACACGTAATTACATAAAGAAGA,4760 a.u.
TTCCATCCCACATTCCTCGTGTTGGATTGGCTGCAA,9210 a.u.

# For quick reference, copied from above (sample 1):
target,remaining binding [%]
"PRKD2 (Homo sapiens, UniProt Q9BZL6)",94
"TLK1 (Homo sapiens, UniProt Q9UKI8)",93
"IRAK1 (Homo sapiens, UniProt P51617)",100
"GRK7 (Homo sapiens, UniProt Q8WTQ7)",100
"CLK3 (Homo sapiens, UniProt P49761)",94
"MAPK9 (Homo sapiens, UniProt P45984)",81
